# Experimental data collected from several papers.
# Each line is one published result; not all experiments were run side by side.
SMILES,organism,test,system,conditions,EC50
CC(=O)Oc1ccc(Cn2cc(F)c(=O)[nH]c2=O)cc1C1OC(c2ccc(Cl)cc2)=NN1C(C)=O (stereo not drawn),varicella-zoster virus,"plaque formation, plaque reduction","HEL fibroblasts, TK+ strain OKA",,> 20 µM
Nc1ncnc2c1c(F)cn2[C@@H]1O[C@H](CO)[C@@H](O)[C@H]1O,Trypanosoma equiperdum,"parasite growth, resazurin",,72 h,0.033 µM
CCCCCCC(CC=CCCCCCCCC(=O)OCCOCn1cnc2c(=O)[nH]c(N)nc21)OC(=O)CCCCC1SCC2NC(=O)NC21 (stereo not drawn),Epstein-Barr virus,"viral DNA accumulation, DNA hybridization",Akata cells,72 h,2.1 µM
CC(=O)Oc1ccc(Cn2cc(C)c(=O)[nH]c2=O)cc1C1OC(c2ccccc2)=NN1C(C)=O (stereo not drawn),varicella-zoster virus,"plaque formation, plaque reduction","HEL fibroblasts, TK+ strain OKA",,> 100 µM
COc1ccccc1CNC(=O)CSc1c[nH]c2ccccc12,human coronavirus OC43,"viral cytopathic effect, MTS",HCT-8,120 h,1.13 µM
O=C1/C(=N\NC(=S)NN=Cc2cccs2)c2ccccc2N1Cc1ccccc1,varicella-zoster virus,plaque formation,"HEL, TK+",,> 20 µM
CC(=O)Oc1ccc(Cn2cc(F)c(=O)[nH]c2=O)cc1C1OC(c2cccc(Cl)c2)=NN1C(C)=O (stereo not drawn),varicella-zoster virus,"plaque formation, plaque reduction","HEL fibroblasts, TK+ strain OKA",,34.4 µM
CNC(=O)CNc1cnc2ccc(-c3ccc(OC)c(OC)c3)cc2n1,Cryptosporidium hominis,cytopathic effect,HCT-8,,8.56 µM
Nc1ncnc2c1c(Br)cn2[C@@H]1O[C@H](CO)[C@@H](O)[C@H]1O,Trypanosoma equiperdum,"parasite growth, resazurin",,72 h,0.085 µM
CCOC(=O)[C@@H](C)NP(=O)(CO[C@H](CF)CN1CNC(N)=NC1=O)N[C@H](C)C(=O)OCC,varicella-zoster virus,plaque formation,"HEL, TK-deficient 07-1",,> 100 µM
O=c1cc[s+]([O-])c2ccccc12 (racemic),Leishmania panamensis,"parasite growth, flow cytometry",U-937,"72 h, intracellular, amastigote",112 µM
CC(C)OC(=O)[C@H](Cc1ccccc1)NP(=O)(COCCn1cnc2c(=O)[nH]c(=O)[nH]c21)N[C@@H](Cc1ccccc1)C(=O)OC(C)C,varicella-zoster virus,plaque formation,"HEL, Oka TK+",,22 µM
CCCCCCCCCC1=CC(=O)c2ccccc2S1(=O)=O,Leishmania panamensis,"parasite growth, flow cytometry",U-937,"72 h, intracellular, amastigote",92.7 µM
CC(=O)Oc1ccc(Cn2ccc(=O)[nH]c2=O)cc1C1OC(c2ccccc2)=NN1C(C)=O (stereo not drawn),varicella-zoster virus,"plaque formation, plaque reduction","HEL fibroblasts, TK- strain 07-1",,> 100 µM
CN(C(=O)c1ccn2ncc(-c3ccc(C(N)=O)cc3)c2c1)c1ccc(C#N)cn1,Cryptosporidium hominis,cytopathic effect,HCT-8,,0.13 µM
CC(=O)Oc1ccc(Cn2cc(C)c(=O)[nH]c2=O)cc1C1OC(c2ccc(Cl)cc2)=NN1C(C)=O (stereo not drawn),varicella-zoster virus,"plaque formation, plaque reduction","HEL fibroblasts, TK+ strain OKA",,> 20 µM
O=c1cc[s+]([O-])c2ccc(Cl)cc12 (racemic),Leishmania panamensis,"parasite growth, flow cytometry",U-937,"72 h, intracellular, amastigote",197 µM
CNC(=O)c1ccc(-c2cnn3ccc(C(=O)N(C)c4ccc(C#N)cn4)cc23)cc1,Cryptosporidium hominis,cytopathic effect,HCT-8,,0.119 µM
CC(=O)Oc1ccc(Cn2cc(F)c(=O)[nH]c2=O)cc1C1OC(c2ccccc2)=NN1C(C)=O (stereo not drawn),varicella-zoster virus,"plaque formation, plaque reduction","HEL fibroblasts, TK- strain 07-1",,> 100 µM
Cc1cn(C2CC(N(C)C)C(CO)O2)c(=O)[nH]c1=O (stereo not drawn),reovirus 1,viral replication,Vero,,> 0.37 µM
CC(=O)Oc1ccc(Cn2cc(C)c(=O)[nH]c2=O)cc1C1OC(c2cccc(Cl)c2)=NN1C(C)=O (stereo not drawn),varicella-zoster virus,"plaque formation, plaque reduction","HEL fibroblasts, TK- strain 07-1",,> 20 µM
O=S(=O)(CCC(F)(F)F)N[C@H]1CC[C@H](Nc2ncc3c(-c4ccccn4)n[nH]c3n2)CC1,Leishmania donovani,,"promastigotes, LdBOB wild type start clone",,0.1 µM
CNC(=O)c1ccc(-c2cnc3cnc(C(=O)N(C)c4ccc(Cl)cc4)cn23)cc1,Cryptosporidium hominis,cytopathic effect,HCT-8,,0.082 µM
CN(C)c1ccc(C=Nn2c(-c3ccccc3)nc3ccccc3c2=O)cc1,reovirus 1,viral replication,Vero,,> 20 µg/mL

# Repeated from above:
SMILES,organism,test,system,conditions,EC50
CC(=O)Oc1ccc(Cn2cc(C)c(=O)[nH]c2=O)cc1C1OC(c2ccc(Cl)cc2)=NN1C(C)=O (stereo not drawn),varicella-zoster virus,"plaque formation, plaque reduction","HEL fibroblasts, TK+ strain OKA",,> 20 µM
CCOC(=O)[C@@H](C)NP(=O)(CO[C@H](CF)CN1CNC(N)=NC1=O)N[C@H](C)C(=O)OCC,varicella-zoster virus,plaque formation,"HEL, TK-deficient 07-1",,> 100 µM
